Experimental data pooled from the literature.
Protocols differ between the studies behind these lines. ± gives the spread as reported.
Organism: Bacillus subtilis

| SMILES | test | test system | conditions | quantity | result |
| --- | --- | --- | --- | --- | --- |
| C=C1CC(OC(=O)C(C)(O)CCl)C2C(=C)C(=O)OC2C2C1CC(O)C2(O)CCl (centres unmarked) | – | – | concentration not given | inhibition zone | 12 ± 1.6 mm |
| CC(C)=CCC/C(C)=C/CNCCNC1C2CC3CC1CC(O)(C3)C2 (centres unmarked) | microbial growth | – | – | IC50 | > 500 µM |
| CCN(CC)CCSc1nnc(C23CC4CC(CC(C4)C2)C3)n1C | – | IFO 3007 | 200 µg/disc, 24 h, 37 °C | inhibition zone diameter | 14 mm |
| CCOC(=O)c1sc(N/N=C/c2c(-c3ccc(C)cc3)nc3ncccn23)nc1C | microbial growth, well diffusion | ATCC6051 | 100 µg/mL | inhibition zone | 12 mm |
| Cc1cc([N+](=O)[O-])ccc1NC(=O)CSc1nc2ccccc2c(=O)n1-c1ccc(S(N)(=O)=O)cc1 | microbial growth, well diffusion | ATCC6633 | 500 µg/mL, 24 h | inhibition zone | 36 mm |
| O=C(O)CN1C(=O)/C(=C/c2ccc(-c3ccc(N(c4ccccc4)c4ccccc4)cc3)cc2)NC1=S | broth microdilution | ATCC 6633 | – | MBC/MIC ratio | 1 |
| CC(C)=CCCC1(C)CC=NO1 (centres unmarked) | microbial growth | – | – | IC50 | > 500 µM |
| Clc1ccc(CSc2nnc(C34CC5CC(CC(C5)C3)C4)n2-c2ccccc2)cc1 | – | IFO 3007 | 200 µg/disc, 24 h, 37 °C | inhibition zone diameter | 17 mm |
| CCOc1ccc(NC(=O)CSc2nc3ccccc3c(=O)n2-c2ccc(S(N)(=O)=O)cc2)cc1 | microbial growth, well diffusion | ATCC6633 | 500 µg/mL, 24 h | inhibition zone | 35 mm |
| CCOC(=O)c1cnc(N/N=C/c2c(-c3ccc(C#N)cc3)nc3ncccn23)s1 | – | ATCC 6051 | 100 µg/mL | inhibition zone | 15 mm |
| Cc1cccc([N+](=O)[O-])c1NC(=O)CSc1nc2ccccc2c(=O)n1-c1ccc(S(N)(=O)=O)cc1 | microbial growth, well diffusion | ATCC6633 | 500 µg/mL, 24 h | inhibition zone | 30 mm |
| CCOC(=O)c1sc(N/N=C/c2c(-c3ccccc3)nc3ncccn23)nc1C | microbial growth, well diffusion | ATCC6051 | 100 µg/mL | inhibition zone | 12 mm |
| CCOC(=O)C1=C(C)NC2=C(C(=O)CC(C)(C)C2)C1c1ccc(OCC(=O)NN=Cc2cc(Br)c(O)c(Br)c2)cc1OCC(=O)NN=Cc1cc(Br)c(O)c(Br)c1 (centres unmarked) | – | ATCC 6337 | concentration not given, 24 h, 37 °C | inhibition zone diameter | 13.2 ± 0.01 mm |
| FC(F)(F)c1cc(CSc2nnc(C34CC5CC(CC(C5)C3)C4)n2-c2ccccc2)cc(C(F)(F)F)c1 | – | IFO 3007 | 200 µg/disc, 24 h, 37 °C | inhibition zone diameter | 32 mm |
| CCOC(=O)c1cnc(N/N=C/c2c(-c3ccc(OC)cc3)nc3ncccn23)s1 | microbial growth, well diffusion | ATCC6051 | 100 µg/mL | inhibition zone | 12 mm |
| S=c1n(CN2CCN(c3ccccn3)CC2)nc(C23CC4CC(CC(C4)C2)C3)n1-c1ccccc1 | – | IFO 3007 | 200 µg/disc, 24 h, 37 °C | inhibition zone diameter | 30 mm |
| COc1cc(NC(=O)CSc2nc3ccccc3c(=O)n2-c2ccc(S(N)(=O)=O)cc2)cc(OC)c1 | microbial growth, well diffusion | ATCC6633 | 500 µg/mL, 24 h | inhibition zone | 24 mm |
| c1ccc(CSc2nnc(C34CC5CC(CC(C5)C3)C4)n2-c2ccccc2)cc1 | – | IFO 3007 | 200 µg/disc, 24 h, 37 °C | inhibition zone diameter | 14 mm |
| CCc1cccc(NC(=O)CSc2nc3ccccc3c(=O)n2-c2ccc(S(N)(=O)=O)cc2)c1 | microbial growth, well diffusion | ATCC6633 | 500 µg/mL, 24 h | inhibition zone | 16 mm |
| CN(C)CCn1nc(C23CC4CC(CC(C4)C2)C3)n(C)c1=S | – | IFO 3007 | 200 µg/disc, 24 h, 37 °C | inhibition zone diameter | 17 mm |
| NS(=O)(=O)c1ccc(-n2c(SCC(=O)Nc3ccc([N+](=O)[O-])cc3[N+](=O)[O-])nc3ccccc3c2=O)cc1 | microbial growth, well diffusion | ATCC6633 | 500 µg/mL, 24 h | inhibition zone | 28 mm |
| Cn1c(C23CC4CC(CC(C4)C2)C3)nn(CCN2CCCCC2)c1=S | – | IFO 3007 | 200 µg/disc, 24 h, 37 °C | inhibition zone diameter | 19 mm |
| CCOC(=O)c1cnc(N/N=C/c2c(-c3ccc(F)cc3)nc3ncccn23)s1 | – | ATCC 6051 | 100 µg/mL | inhibition zone | 16 mm |

Excerpt of the above:
| SMILES | test | test system | conditions | quantity | result |
| --- | --- | --- | --- | --- | --- |
| CCc1cccc(NC(=O)CSc2nc3ccccc3c(=O)n2-c2ccc(S(N)(=O)=O)cc2)c1 | microbial growth, well diffusion | ATCC6633 | 500 µg/mL, 24 h | inhibition zone | 16 mm |
| CN(C)CCn1nc(C23CC4CC(CC(C4)C2)C3)n(C)c1=S | – | IFO 3007 | 200 µg/disc, 24 h, 37 °C | inhibition zone diameter | 17 mm |
